Experimental data from different studies.
Numbered parts are unrelated; each lists some results of a single study. Changes are numbered by the printed parent chain.

Block 1
Target: ABI1, truncated, D143A, DHFR fusion (Arabidopsis thaliana)
Method: DHFR PCA, deep sequencing
Sample: yeast
Setting: methotrexate growth selection, single substitutions
Together with: (+)-ABA 0.0091 µM
Relative to: wild-type fitted maximum
Direction: higher = stronger binding
Starting sequence: PYL1, truncated, DHFR fusion (Arabidopsis thaliana); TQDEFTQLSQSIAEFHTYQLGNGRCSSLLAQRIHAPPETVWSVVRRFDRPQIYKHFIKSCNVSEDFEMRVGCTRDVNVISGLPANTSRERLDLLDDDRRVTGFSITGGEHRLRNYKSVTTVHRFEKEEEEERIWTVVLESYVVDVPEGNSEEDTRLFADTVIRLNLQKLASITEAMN
| Substitution | relative binding score [%] |
| --- | --- |
| V44H | 1.51 |
| F124N | -1.38 |
| P36H | 28.8 |
| H16E | -1.64 |
| S117L | -1.54 |
| A35H | -5.39 |
| V43M | 4.9 |
| D159W | -0.223 |
| L20T | 56.5 |
| A35F | -0.949 |
| A84F | 93.9 |
| L164R | 0.575 |
| G23C | 2.12 |
| I12N | -4.69 |
| R163L | -1.22 |
| S80G | 11.5 |
| R123D | 2.74 |
| D153H | 3.67 |
| F56T | -1.5 |
| W134M | 27.6 |
| R163Q | 24.3 |
| D3K | 18.5 |
| T120C | -7.17 |
| A84Y | 105 |
| H34G | 4.02 |

Block 2
Target: RNA binding protein fox-1 homolog 2, RRM domain, GST-SBP tag (RBFOX2, Homo sapiens, UniProt O43251-10, residues 100-194)
Method: RNA Bind-n-Seq
Form: RNA
Sample: in vitro
Concentration: 365 nM
Setting: natural RNA segment, single round, ends assumed
Relative to: no-protein control
Direction: higher = stronger binding
Construct (chain): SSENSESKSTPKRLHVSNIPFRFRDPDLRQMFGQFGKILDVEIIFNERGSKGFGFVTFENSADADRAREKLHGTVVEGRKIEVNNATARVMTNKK
| Strand | RBNS enrichment (R) |
| --- | --- |
| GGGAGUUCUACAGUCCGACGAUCGAUGUAUAAAGCAACAUGAAACAUUAGCCCUCCUUUUAUUUUAAAGACUAAUGUUAAUUGUUCUUAAAACUGGAUUUUUUUUCCUUAAAGCAAUUUUUUUCUUUUCGAUUUGGAAUUCUCGGGUGCCAA | 0.875 |
| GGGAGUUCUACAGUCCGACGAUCGUCAGAACCUUGCAAUAAGCCAAGGUAUUACCAGUAAAUUGGUUGUAUAUACAAUAAAAUUGCACCCUUUUUUAAACAAAACAAACUAAGCAAUAGUUUGGGCAGUUUUAUGGAAUUCUCGGGUGCCAA | 0.346 |
| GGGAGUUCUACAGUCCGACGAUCACAGUAAUAAGUUGACUCACACAGACUUAAAGCCUGAAAACAUCUUAUUUGUGCAGUCUGACUACACAGAGGCGUAUAAUCCCAAAAUGAAACGUGAUGAACGCACCUUAUGGAAUUCUCGGGUGCCAA | 0.34 |
| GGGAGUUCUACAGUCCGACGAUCCAGCCUGAUACAGCAUUACUGUUGUCACCAGUUGACUGGAAUUGUAACCUUUUACUUGGGAAUGUGGUGGCCCAAUGUCAGCUGACCUGAAAGAACAUGGCUACCGUGAGUGGAAUUCUCGGGUGCCAA | 0.401 |
| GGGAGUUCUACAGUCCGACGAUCUUGCCUACCUCCUUGCAUGGACAGGGGGAUGAAUAUUUACUUUCCCACCUCCUUGCUUUUUCUUUCACUGAUACCACUGAAUGGAACUGGUGCUGUGACUCCUGCUGCUGUGGAAUUCUCGGGUGCCAA | 1.89 |
| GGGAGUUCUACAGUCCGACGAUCGUACAGAUUGUGGGAAGAAGCAGAAACACAAUUCAGAACACCGUCUUCUCCACCCACAGUCCAACUCCACCCCAGACUUCCGUGUGUCAGAGCUAAGGGGAACACCGAGAUGGAAUUCUCGGGUGCCAA | 0.458 |
| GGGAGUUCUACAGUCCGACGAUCACUUGCCUCUUGUAUGCAAGGACUACUGAUUGAAGUCUGUUUUGCUGUGUCUGGUUAUGUUGUCUGCACUUUUAUGAAAUCACUACAAUAGGUCUGCAUUGGAAAUGACUUGGAAUUCUCGGGUGCCAA | 1.51 |
| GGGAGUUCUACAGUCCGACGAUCGAGAGGCUCUUACUAGGGCCCUCAUUUCUCCUUUUCUGUAUAAGUAUAAGGUCCAGGCUGGUCCUUACUCUUCCUGGGACCAAAAGCACCCAGAGGCAUUAACAGGUCCCUGGAAUUCUCGGGUGCCAA | 0.243 |
| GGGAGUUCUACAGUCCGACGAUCUUAGCCUGUCUGUCACACGACGGAAUGGAUACUGGGCCCGGGGACCACUUUCAUACUCACGUCCUCAUCCUUGGAUACCCAGGGGAGGGCGAACCGUUUUCGCUCGUGUGUGGAAUUCUCGGGUGCCAA | 0.265 |
| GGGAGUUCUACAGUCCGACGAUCACUAGGAGAGUGCAGAGCGCAGCAGAGCCUGCUCUCAUCCCUCUAUCCCCAGCCCAGUCUUCCUCCUCCAUCCUUAAGCAGUAUAAAUGCUAUGUGCCCUCUUCACUUAGUGGAAUUCUCGGGUGCCAA | 0.483 |
| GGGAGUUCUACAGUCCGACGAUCAGCCAAUGGGAAACCAAAAGGAGCUCACUUCCUGUUCUUCCUAGCUCCCCUCCCUGCCGCUGUGCUCCGCUCCUCCCCACACUUCCUUGCUACAGUUCCCAGCUGCUGUAUGGAAUUCUCGGGUGCCAA | 0.332 |
| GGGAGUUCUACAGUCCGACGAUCAAAGGCUUUCUUUAUCCUAAAGAUUAUUACCUUUUUAAAGUGCUCUUAUAUUUUCAUGAGUUUUUAUUUUGUCUCUGAGAUUUUGUAUUCCACAUUCUAGGGUAUUCUGUUGGAAUUCUCGGGUGCCAA | 0.514 |

Block 3
Target: Ras GTPase-activating protein-binding protein 1, C-terminal RGG region (G3BP1, Homo sapiens, UniProt Q13283)
UniProt Q13283, sequence (whole entry, looked up): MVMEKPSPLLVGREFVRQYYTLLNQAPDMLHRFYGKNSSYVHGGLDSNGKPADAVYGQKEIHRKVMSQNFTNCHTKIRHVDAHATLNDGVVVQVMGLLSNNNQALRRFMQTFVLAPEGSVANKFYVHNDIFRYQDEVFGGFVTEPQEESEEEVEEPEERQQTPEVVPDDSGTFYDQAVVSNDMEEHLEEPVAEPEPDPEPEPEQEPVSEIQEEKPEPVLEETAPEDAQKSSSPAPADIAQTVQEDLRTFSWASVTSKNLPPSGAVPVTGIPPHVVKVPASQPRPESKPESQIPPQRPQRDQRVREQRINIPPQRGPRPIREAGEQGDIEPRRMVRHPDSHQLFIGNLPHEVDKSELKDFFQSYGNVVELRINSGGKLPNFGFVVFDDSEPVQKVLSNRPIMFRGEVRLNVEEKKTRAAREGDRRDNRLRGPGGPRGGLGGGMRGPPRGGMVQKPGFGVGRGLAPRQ
Method: RNA Bind-n-Seq
Form: RNA
Sample: in vitro
Concentration: 1 µM
Setting: whole 134-nt RNA, ends assumed
Together with: 150 mM KCl
Relative to: input library
Direction: higher = stronger binding
| Strand | log2 enrichment |
| --- | --- |
| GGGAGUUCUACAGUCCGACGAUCUAACUUUAGAGGAGGAUCUGAUGGAUAUGGCAGUGGACGUGGAUUUGGGGAUGUCUAUAAUGGGUAUGGAGGAGGACCUGGAGGUGGCAAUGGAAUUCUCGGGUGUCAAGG | -0.0898 |
| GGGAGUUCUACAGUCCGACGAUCAGUCCUGUGCUACACAUCGUAUGUACCGAAUCGGGGAGGGGAAAAAGGGGAAAGGGGAAAGUAUUAUGUUACGCCGUUCGGAUCUGCACUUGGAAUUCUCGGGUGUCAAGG | 2.42 |
| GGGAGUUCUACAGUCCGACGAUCUGGCUCUGGUGGCAUGCGGGGAGGAAGAGGUGGCCUCAUGGAUCGUGGUGGUCCCGGUGGAAUGUUCAGAGGUGGCCGUGGUGGAGACAGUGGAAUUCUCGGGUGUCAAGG | 1.88 |
| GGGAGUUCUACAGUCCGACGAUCGCAGGAAGUAAAAACAAAUGGAAAUGCUUCGGAUAGUGGCAGGGGUGGGGGAAACUAAGGAAAGGGUGGGAUGGGAGUGGGUAAAGAGUUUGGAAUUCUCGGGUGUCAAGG | 1.71 |
| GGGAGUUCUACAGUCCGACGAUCUAACUUUAGAGGAGGAUCUGAUGGAUAUGGCAGUGGACGUGGAUUUGGGGAUGGCUAUAAUGGGUAUGGAGGAGGACCUGGAGGUGCCAAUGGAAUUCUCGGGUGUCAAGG | -0.623 |
| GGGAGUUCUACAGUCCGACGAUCAAGUCCUGUGCUACACAUCGUAUGUACCGAAUCGGAAAAAGGUUUGGAAAAAAAGGAAAGUAUUAUGUUACGCCGUUCGGAUCUGCACUUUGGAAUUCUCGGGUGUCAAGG | -2.11 |
| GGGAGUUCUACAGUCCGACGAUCUGUCCUGCAGGGUCGGACCGAUACCUGGAGAGCCGCGAUGCCUCUCGACUGAGUGGCCGGGACCCCUCCUCAUGGACAGUCGAGGAUGUGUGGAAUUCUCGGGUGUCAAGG | -2.11 |
| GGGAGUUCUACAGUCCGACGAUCUCCUGUGCUACACAUCGUAUGUACCGAAUCAAAGUGUGUGUGUGUGUGUGUGUGUGAAAAAAGUAUUAUGUUACGCCGUUCGGAUCUGCAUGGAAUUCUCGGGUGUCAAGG | 1.27 |
| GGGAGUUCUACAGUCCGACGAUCGCAGGAAGUAAAAACAAAUGGAAAUGCUUCAGAUAGUGGCAGGGGUGGGGGUUGCUAAGGAAAGGGUGGGAUGGGAGUGGGUAAAGAGUUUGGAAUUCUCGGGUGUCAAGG | 1.73 |
| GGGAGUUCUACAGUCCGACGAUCGUCCUGUGCUACACAUCGUAUGUACCGAAUCGGGGCCCCGGGCCCCGGGGCCCCGGGGAAAGUAUUAUGUUACGCCGUUCGGAUCUGCACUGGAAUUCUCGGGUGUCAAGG | -2.51 |

Block 4
Target: Phosphate system positive regulatory protein PHO4, full length, GST-tagged (PHO4, Saccharomyces cerevisiae, UniProt P07270, residues 1-312)
Method: competition protein-binding microarray
Form: double-stranded DNA, one strand shown
Sample: in vitro
Concentration: 2 µM
Setting: whole 60-bp probe, lowest competitor level
Together with: Cbf1 competitor, 0.05 µM
Direction: higher = stronger binding
Residues (chain): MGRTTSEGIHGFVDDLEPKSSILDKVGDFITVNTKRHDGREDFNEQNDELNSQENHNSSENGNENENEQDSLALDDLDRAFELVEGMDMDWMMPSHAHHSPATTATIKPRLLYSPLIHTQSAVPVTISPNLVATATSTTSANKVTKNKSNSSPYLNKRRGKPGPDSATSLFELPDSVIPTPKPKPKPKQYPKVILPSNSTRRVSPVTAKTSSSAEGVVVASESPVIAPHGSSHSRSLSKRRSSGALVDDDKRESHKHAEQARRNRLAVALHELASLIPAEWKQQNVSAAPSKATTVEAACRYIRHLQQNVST
| Strand | fluorescence intensity [a.u.] |
| --- | --- |
| AAATTACTAAGTTGTCACCTCACTTACCCCGTATGAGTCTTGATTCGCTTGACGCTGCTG | 3180 |
| ATTACCATTCTCCGTCACGTGCAAATAAAACCACTCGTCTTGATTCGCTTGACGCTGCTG | 15400 |
| CTAACGAAGGTTTGTCACTTCACTTACAAGCCAAGTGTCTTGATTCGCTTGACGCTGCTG | 3040 |
| TTTTTTTGGCTCCATCACGCTCGTCAGTTGAGCTCGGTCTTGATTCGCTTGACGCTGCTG | 4670 |
| CCGCCCGATATATATCACATGTAGCTGTGTAATATGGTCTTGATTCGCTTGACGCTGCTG | 8180 |
| CTAACGAAGGTTTGAGCAGTGGGTGACAAGCCAAGTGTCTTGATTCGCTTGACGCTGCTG | 3400 |
| CACTGTTGGTTCGACACCGTGGGTAAAGATGACAGTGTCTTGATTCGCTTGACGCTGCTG | 10000 |
| GCCTTGCAATTTATCACCGTGAGACATCCAGACAGTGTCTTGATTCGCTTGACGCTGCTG | 5250 |
| GGCCTTCAGGCTTTGCACGCTAGCACACACCTTGGCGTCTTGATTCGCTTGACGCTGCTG | 6960 |
| CTTTCCCGATCTTGGCTAGTGGGTGTAGCACATTTGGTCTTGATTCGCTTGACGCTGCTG | 4410 |
| TCTCTAGGTGGTTGGGCAAATCTATCAATATTCTTGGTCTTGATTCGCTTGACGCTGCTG | 2920 |
| CGGGGTTAAGTTTGTCACGTGTTTTGCTTGCAGCAGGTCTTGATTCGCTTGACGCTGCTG | 13500 |
| CGTCCTAGTGATTGGCACGTGGGTGCCATGAGGAAGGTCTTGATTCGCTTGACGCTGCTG | 19200 |
| AGTATCATAGGGTCCCACGTGCAAAGTCCACCGTCTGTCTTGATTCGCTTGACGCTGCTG | 20700 |
| TTTAGTGTCTCTGCCTATGTGATGGGTCTGTTTCCTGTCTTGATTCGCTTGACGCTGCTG | 3470 |
| GTCTTGTCTCATTGTAACGTGGGTGTCCCCACTTCAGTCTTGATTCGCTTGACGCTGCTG | 9310 |
| ACTGTAGAAAGAGAAAGTGTGGTAAAACCAACCAATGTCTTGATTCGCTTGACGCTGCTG | 4770 |
| TGTACAGAAAGAAAATCCGTGATGGTTTAATGGTCAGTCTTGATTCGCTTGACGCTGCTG | 3750 |
| TCAAAGAGTTGAGCGAACGTGACTCCTGGGCTGGCCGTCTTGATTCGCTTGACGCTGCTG | 8500 |
| TAAAGGTGAGTATGGCATGTGGTGGTGGGATTAGAGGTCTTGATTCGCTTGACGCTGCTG | 12400 |
| CTTCCCAGGCCCACCAACGTGCGATCCCCGCTATGTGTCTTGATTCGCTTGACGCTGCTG | 11300 |
| TTGGTACTTGTTCAACACGTTGCTTACGATCTTGGTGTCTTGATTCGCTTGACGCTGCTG | 12100 |
| TTGTTTGCCTCCGTCGGTGTGACGGAGTTGTGGCCTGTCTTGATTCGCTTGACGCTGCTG | 3570 |
| CCGAGACATCTTAGTCAGCTGAGACAAGAAAGGCAAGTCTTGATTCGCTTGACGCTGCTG | 2100 |
| AACCTCGGGGCTTGGGGCGTGGGACATCGAAAGGGGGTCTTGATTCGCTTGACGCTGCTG | 10100 |
